Published values of several laboratories.
Each numbered part is a random draw from the data of one study; scales do not carry over between parts.
Chain of UniProt O43318 (whole entry, looked up): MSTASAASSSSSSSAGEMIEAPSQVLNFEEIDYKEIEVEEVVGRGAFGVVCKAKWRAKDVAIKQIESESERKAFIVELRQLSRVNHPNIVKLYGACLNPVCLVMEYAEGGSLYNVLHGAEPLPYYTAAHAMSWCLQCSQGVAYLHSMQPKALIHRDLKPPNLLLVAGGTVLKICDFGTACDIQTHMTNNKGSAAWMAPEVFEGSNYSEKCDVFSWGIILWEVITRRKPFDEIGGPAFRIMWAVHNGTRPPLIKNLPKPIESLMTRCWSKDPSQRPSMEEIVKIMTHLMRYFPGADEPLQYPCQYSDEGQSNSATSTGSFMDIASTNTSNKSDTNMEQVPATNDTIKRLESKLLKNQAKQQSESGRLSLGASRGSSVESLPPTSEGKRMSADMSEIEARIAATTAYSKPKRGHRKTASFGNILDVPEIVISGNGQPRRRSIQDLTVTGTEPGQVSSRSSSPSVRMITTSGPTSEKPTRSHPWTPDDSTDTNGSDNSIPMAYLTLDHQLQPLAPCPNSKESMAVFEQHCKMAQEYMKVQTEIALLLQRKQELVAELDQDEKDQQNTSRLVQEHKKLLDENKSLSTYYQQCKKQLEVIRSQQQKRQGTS
Chain of UniProt P07332 (whole entry, looked up): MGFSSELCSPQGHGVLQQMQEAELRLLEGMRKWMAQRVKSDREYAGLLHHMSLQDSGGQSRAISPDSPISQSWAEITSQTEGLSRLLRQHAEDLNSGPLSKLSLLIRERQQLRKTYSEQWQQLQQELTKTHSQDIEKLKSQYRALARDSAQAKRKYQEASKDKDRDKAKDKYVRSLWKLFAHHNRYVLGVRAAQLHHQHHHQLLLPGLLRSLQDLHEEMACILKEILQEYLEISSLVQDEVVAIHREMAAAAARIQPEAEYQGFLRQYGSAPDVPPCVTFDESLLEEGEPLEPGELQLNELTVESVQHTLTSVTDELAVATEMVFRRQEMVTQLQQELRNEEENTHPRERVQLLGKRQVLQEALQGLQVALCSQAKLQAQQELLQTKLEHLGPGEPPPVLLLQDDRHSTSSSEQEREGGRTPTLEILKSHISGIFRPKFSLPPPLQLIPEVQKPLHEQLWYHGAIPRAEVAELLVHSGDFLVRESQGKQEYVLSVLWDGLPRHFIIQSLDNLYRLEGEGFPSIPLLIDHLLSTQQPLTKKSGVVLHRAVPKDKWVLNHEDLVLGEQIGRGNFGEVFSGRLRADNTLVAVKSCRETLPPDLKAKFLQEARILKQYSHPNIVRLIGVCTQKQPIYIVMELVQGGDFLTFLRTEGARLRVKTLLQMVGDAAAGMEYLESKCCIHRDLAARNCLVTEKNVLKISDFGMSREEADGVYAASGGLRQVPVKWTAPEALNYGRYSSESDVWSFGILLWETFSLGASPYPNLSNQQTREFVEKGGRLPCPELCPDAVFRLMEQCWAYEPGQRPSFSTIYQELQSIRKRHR
Chain of UniProt Q9HCP0 (whole entry, looked up): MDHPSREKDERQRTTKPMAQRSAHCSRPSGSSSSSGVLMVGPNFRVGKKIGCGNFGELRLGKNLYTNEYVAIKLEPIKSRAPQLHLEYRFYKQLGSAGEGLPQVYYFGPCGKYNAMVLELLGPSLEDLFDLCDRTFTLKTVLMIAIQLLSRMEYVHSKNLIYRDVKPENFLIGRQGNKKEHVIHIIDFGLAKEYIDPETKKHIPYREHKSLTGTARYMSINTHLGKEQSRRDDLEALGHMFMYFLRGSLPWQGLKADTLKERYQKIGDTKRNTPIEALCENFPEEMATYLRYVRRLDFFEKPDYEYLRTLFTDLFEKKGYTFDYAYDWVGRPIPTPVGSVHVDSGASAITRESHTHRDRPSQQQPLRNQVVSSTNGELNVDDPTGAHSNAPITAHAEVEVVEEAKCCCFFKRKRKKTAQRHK

Block 1
Target: Leucine-rich repeat serine/threonine-protein kinase 2 (LRRK2, Homo sapiens, UniProt Q5S007)
Chain of UniProt Q5S007 (whole entry, looked up): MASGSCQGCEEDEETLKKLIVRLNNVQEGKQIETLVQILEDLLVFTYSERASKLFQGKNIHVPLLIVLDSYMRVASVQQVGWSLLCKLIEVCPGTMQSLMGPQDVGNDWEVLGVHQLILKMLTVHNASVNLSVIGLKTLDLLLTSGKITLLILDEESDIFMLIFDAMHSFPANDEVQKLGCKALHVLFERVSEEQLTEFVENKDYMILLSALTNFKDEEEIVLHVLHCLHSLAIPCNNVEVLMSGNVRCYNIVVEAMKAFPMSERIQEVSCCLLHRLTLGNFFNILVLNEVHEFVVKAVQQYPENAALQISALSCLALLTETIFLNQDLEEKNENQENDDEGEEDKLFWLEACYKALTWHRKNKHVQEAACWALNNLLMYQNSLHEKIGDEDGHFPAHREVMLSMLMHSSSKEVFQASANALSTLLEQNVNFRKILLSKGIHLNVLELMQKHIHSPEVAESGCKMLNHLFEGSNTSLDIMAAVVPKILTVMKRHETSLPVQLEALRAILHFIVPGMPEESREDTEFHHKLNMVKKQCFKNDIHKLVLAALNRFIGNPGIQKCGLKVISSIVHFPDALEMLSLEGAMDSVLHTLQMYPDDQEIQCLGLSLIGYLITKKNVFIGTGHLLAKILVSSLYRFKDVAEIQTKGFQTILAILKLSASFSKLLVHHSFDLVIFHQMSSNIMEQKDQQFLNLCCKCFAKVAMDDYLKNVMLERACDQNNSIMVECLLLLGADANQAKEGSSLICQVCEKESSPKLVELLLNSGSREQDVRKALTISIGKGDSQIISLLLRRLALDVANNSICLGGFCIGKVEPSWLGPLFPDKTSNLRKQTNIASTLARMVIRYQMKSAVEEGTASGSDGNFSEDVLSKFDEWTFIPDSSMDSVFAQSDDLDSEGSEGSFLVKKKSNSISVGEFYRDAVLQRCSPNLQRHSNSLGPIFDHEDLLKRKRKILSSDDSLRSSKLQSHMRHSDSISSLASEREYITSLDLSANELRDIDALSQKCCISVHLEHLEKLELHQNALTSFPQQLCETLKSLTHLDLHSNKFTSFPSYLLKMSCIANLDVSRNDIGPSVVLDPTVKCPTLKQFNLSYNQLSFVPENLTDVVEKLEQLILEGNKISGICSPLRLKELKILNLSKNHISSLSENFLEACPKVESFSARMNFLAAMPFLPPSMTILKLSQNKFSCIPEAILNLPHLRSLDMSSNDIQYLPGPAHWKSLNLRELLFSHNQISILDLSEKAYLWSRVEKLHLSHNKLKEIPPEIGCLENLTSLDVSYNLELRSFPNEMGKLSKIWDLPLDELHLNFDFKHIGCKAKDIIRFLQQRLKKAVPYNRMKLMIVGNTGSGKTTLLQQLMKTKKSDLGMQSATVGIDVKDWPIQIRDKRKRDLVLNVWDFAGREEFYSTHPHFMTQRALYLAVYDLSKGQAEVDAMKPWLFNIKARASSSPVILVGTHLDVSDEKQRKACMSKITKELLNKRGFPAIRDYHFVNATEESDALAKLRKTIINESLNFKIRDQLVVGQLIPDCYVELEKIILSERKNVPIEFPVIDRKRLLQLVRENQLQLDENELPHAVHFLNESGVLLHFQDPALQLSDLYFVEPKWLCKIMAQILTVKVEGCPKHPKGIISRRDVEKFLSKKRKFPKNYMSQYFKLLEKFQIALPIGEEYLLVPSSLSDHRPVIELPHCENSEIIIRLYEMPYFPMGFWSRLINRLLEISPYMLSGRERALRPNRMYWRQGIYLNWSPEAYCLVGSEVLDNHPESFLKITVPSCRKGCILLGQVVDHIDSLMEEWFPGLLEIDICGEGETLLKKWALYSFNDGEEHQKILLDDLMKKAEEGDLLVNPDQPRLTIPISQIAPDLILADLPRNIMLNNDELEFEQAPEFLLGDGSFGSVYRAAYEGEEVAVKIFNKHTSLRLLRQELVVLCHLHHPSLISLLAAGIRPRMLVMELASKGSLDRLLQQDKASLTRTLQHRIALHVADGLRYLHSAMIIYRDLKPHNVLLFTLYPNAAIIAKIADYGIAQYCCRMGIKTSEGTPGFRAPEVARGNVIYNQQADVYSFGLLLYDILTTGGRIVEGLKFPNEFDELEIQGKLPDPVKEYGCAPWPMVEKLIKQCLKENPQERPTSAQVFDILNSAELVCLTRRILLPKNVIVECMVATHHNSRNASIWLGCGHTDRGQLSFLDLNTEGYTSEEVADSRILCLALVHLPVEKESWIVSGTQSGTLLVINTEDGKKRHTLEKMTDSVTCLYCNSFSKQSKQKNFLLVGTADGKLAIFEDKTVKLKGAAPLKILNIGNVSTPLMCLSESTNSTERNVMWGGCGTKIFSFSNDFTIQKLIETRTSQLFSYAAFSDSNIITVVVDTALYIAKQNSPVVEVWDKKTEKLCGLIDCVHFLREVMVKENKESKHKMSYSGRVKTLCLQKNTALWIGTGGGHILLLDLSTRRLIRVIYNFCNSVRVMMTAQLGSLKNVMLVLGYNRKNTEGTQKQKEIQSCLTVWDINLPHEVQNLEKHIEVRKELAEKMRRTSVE
Observed: enzyme activity
Mode: inhibitor
Tested at: 0.5 µM
Baseline: control
COc1cc2ncnc(Nc3ccc(O)c(Br)c3)c2cc1OC gave a remaining activity of 82.7%.
For c1ccc(-c2[nH]ncc2-c2ccnc3ccccc23)nc1, the remaining activity was 93.7%.
O=C(NC(NC(=S)Nc1ccc(F)c([N+](=O)[O-])c1)C(Cl)(Cl)Cl)C(c1ccccc1)c1ccccc1 (centres unmarked) has a remaining activity of 99.3%.
Ic1cccc(CSc2nnc(-c3ccncc3)o2)c1 gave a remaining activity of 91.9%.
CN([C@@H](Cc1ccc(OS(=O)(=O)c2cccc3cnccc23)cc1)C(=O)N1CCN(c2ccccc2)CC1)S(=O)(=O)c1cccc2cnccc12 has a remaining activity of 97.1%.
Cc1cc2ncc(-c3ccccc3)nc2cc1C has a remaining activity of 94.4%.
For COc1cc2c(cc1OC)-c1[nH]nc(Nc3cccc(F)c3)c1C2, the remaining activity was 82.3%.
The remaining activity of O=C1C(Cl)=C(N2C(=O)CCC2=O)C(=O)c2ccccc21 is reported as 103%.
Cc1nc2cc3nc(-c4cccs4)cnc3cc2n1C has a remaining activity of 106%.
Cn1nc2c3c(cccc31)C(=O)c1ccccc1-2 gave a remaining activity of 55.9%.
For c1ccc(-c2cnc(Nc3ccc(OCCN4CCCC4)cc3)s2)cc1, the remaining activity was 95.8%.
CCN(CC)C(=O)c1ccc(Nc2nc(OCC3CCCCC3)c3[nH]cnc3n2)cc1 gave a remaining activity of 2.21%.
The remaining activity of O=C(Nc1cccc(Nc2nccc(Nc3cccc(C(F)(F)F)c3)n2)c1)C1CC1 is reported as 93.7%.
The remaining activity of CCOc1nc(NC(=O)Cc2cc(OC)ccc2OC)cc(N)c1C#N is reported as 90.5%.
C[C@@H]1CCN(C(=O)CC#N)C[C@@H]1N(C)c1ncnc2[nH]ccc12 gave a remaining activity of 51.3%.
With N#Cc1c(NC(=O)c2cccc3ccccc23)sc2c1CCCC2 the remaining activity was 100%.
The remaining activity of O=c1cc(-c2cccc3c2Sc2ccccc2S3)oc(N2CCOCC2)c1 is reported as 102%.
For CCN(CC)CCNC(=O)c1c(C)[nH]c(/C=C2\C(=O)Nc3ccc(Cl)cc32)c1C, the remaining activity was 1.44%.
COc1cc2ncnc(Nc3cccc(Cl)c3)c2cc1OC has a remaining activity of 60.9%.
N#C/C(=C\c1ccc(O)c(O)c1)C(=O)NCc1ccccc1 gave a remaining activity of 101%.
With Nc1cccc(-c2cc3c(Oc4cccc(O)c4)ncnc3[nH]2)c1 the remaining activity was 93.4%.
CN(C)C[C@H]1CCn2c(c(C3=C(c4cn(C)c5ccccc45)C(=O)NC3=O)c3ccccc32)C1 gave a remaining activity of 93.1%.
Cc1cn(-c2cc(NC(=O)c3ccc(C)c(Nc4nccc(-c5cccnc5)n4)c3)cc(C(F)(F)F)c2)cn1 gave a remaining activity of 81.1%.
O=C1c2ccccc2-c2n[nH]c3cccc1c23 gave a remaining activity of 62.2%.

Block 2
Target: Calcium/calmodulin-dependent protein kinase type II subunit alpha (CAMK2A, Homo sapiens, UniProt Q9UQM7)
Chain of UniProt Q9UQM7 (whole entry, looked up): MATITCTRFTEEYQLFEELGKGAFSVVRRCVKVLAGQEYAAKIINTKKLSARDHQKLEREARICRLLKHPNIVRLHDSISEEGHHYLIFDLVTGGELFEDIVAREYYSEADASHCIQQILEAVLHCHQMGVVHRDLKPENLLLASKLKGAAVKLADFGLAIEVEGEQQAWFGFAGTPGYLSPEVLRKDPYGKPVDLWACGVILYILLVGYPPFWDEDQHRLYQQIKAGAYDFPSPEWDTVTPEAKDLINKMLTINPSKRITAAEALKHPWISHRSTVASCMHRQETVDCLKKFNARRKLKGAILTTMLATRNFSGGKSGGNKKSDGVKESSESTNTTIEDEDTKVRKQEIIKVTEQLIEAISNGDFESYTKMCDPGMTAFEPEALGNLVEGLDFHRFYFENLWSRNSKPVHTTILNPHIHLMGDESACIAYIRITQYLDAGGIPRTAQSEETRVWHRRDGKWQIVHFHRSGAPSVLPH
Observed: enzyme activity
Mode: inhibitor
Tested at: 10 µM
CCCCCCCCCCCCCC1=C(O)C(=O)C=C(O)C1=O gave an inhibition of -6%.
CCN(CC)C(=O)[C@@]1(c2ccccc2)C[C@H]1CN gave an inhibition of -14%.
For CCCCCCCCCCCCCCOC(C)=O, the inhibition was -23%.
For C[C@H]1O[C@@H](O[C@@H]2CC[C@@]3(C)[C@@H](CC[C@]4(C)[C@@H]3C=C[C@]35OC[C@@]6(CCC(C)(C)C[C@H]63)[C@@H](O)C[C@]54C)[C@@]2(C)CO)[C@H](O)[C@@H](O)[C@H]1O (stereo in doubt), the inhibition was 6%.
The inhibition of N#C/C=C1/C=C[C@@H](O)[C@H](O)[C@H]1O[C@@H]1O[C@H](CO)[C@@H](O)[C@H](O)[C@H]1O is reported as 44%.

Block 3
Structure (SMILES): CN(C)C(=O)Cn1cc(-c2nc(C3(c4ccc(-c5cnc(N)nc5)cc4)CC3)no2)cn1
Tested at: 1 µM
It gave 91% for remaining binding (Mitogen-activated protein kinase 6 (MAPK6, Homo sapiens, UniProt Q16659); cell-free assay, competition with immobilised ligand).
Tyrosine-protein kinase Fes/Fps (FES, Homo sapiens, UniProt P07332); cell-free assay, competition with immobilised ligand — remaining binding: 100%.
It gave 90% for remaining binding (Casein kinase I isoform gamma-1 (CSNK1G1, Homo sapiens, UniProt Q9HCP0); cell-free assay, competition with immobilised ligand).
Serine/threonine-protein kinase Chk1 (CHEK1, Homo sapiens, UniProt O14757); cell-free assay, competition with immobilised ligand — remaining binding: 100%.
The remaining binding was 75% (Mitotic checkpoint serine/threonine-protein kinase BUB1 (BUB1, Homo sapiens, UniProt O43683); cell-free assay, competition with immobilised ligand).
It gave 100% for remaining binding (Receptor-type tyrosine-protein kinase FLT3 (FLT3, Homo sapiens, UniProt P36888, N841I); cell-free assay, competition with immobilised ligand).
The remaining binding was 100% (Death-associated protein kinase 1 (DAPK1, Homo sapiens, UniProt P53355); cell-free assay, competition with immobilised ligand).
For Tyrosine-protein kinase ABL1, phosphorylated (ABL1, Homo sapiens, UniProt P00519, F317I); binding: remaining binding read 90%.
Tyrosine-protein kinase ABL1, non-phosphorylated (ABL1, Homo sapiens, UniProt P00519, T315I); cell-free assay, competition with immobilised ligand — remaining binding: 82%.
For Ephrin type-A receptor 2 (EPHA2, Homo sapiens, UniProt P29317); cell-free assay, competition with immobilised ligand: remaining binding read 89%.
Beta-adrenergic receptor kinase 1 (GRK2, Homo sapiens, UniProt P25098); cell-free assay, competition with immobilised ligand — remaining binding: 67%.
For Membrane-associated tyrosine- and threonine-specific cdc2-inhibitory kinase (PKMYT1, Homo sapiens, UniProt Q99640); cell-free assay, competition with immobilised ligand: remaining binding read 90%.
For Serine/threonine-protein kinase B-raf (BRAF, Homo sapiens, UniProt P15056, V600E); cell-free assay, competition with immobilised ligand: remaining binding read 87%.
The remaining binding was 100% (Cyclin-dependent kinase 5 (CDK5, Homo sapiens, UniProt Q00535); cell-free assay, competition with immobilised ligand).
It gave 77% for remaining binding (Tyrosine-protein kinase SYK (SYK, Homo sapiens, UniProt P43405); cell-free assay, competition with immobilised ligand).
The remaining binding was 96% (Cyclin-dependent kinase 11B (CDK11B, Homo sapiens, UniProt P21127); cell-free assay, competition with immobilised ligand).
It gave 81% for remaining binding (Mitogen-activated protein kinase kinase kinase kinase 1 (MAP4K1, Homo sapiens, UniProt Q92918); cell-free assay, competition with immobilised ligand).
The remaining binding was 100% (LIM domain kinase 1 (LIMK1, Homo sapiens, UniProt P53667); cell-free assay, competition with immobilised ligand).
It gave 100% for remaining binding (Cyclin-dependent kinase 9 (CDK9, Homo sapiens, UniProt P50750); cell-free assay, competition with immobilised ligand).
It gave 90% for remaining binding (Receptor-type tyrosine-protein kinase FLT3 (FLT3, Homo sapiens, UniProt P36888, R834Q); cell-free assay, competition with immobilised ligand).
For cAMP-dependent protein kinase catalytic subunit alpha (PRKACA, Homo sapiens, UniProt P17612); cell-free assay, competition with immobilised ligand: remaining binding read 91%.
Vascular endothelial growth factor receptor 3 (FLT4, Homo sapiens, UniProt P35916); cell-free assay, competition with immobilised ligand — remaining binding: 95%.
ALK tyrosine kinase receptor (ALK, Homo sapiens, UniProt Q9UM73); cell-free assay, competition with immobilised ligand — remaining binding: 77%.
It gave 72% for remaining binding (Mitogen-activated protein kinase kinase kinase 7 (MAP3K7, Homo sapiens, UniProt O43318); cell-free assay, competition with immobilised ligand).
Phosphatidylinositol 4,5-bisphosphate 3-kinase catalytic subunit alpha isoform (PIK3CA, Homo sapiens, UniProt P42336, E545K); cell-free assay, competition with immobilised ligand — remaining binding: 85%.

Block 4
Cell line: A-375
Tested at: 100 µM
Time: 18 h
With COc1cc2ccc(=O)oc2cc1OC the viability was 94.4%.
With NC(=O)c1cn(Cc2c(F)cccc2F)nn1 the viability was 96%.
For COc1cc2c(cc1O)[C@@H](Cc1ccc(O)c(Oc3ccc(C[C@@H]4c5cc(OC)c(OC)cc5CCN4C)cc3)c1)N(C)CC2, the viability was 16.6%.
Nc1cccc2c1C(=O)N(C1CCC(=O)NC1=O)C2=O (centres unmarked) has a viability of 108%.
CCCCN1CCCCC1C(=O)Nc1c(C)cccc1C (centres unmarked) has a viability of 90.9%.
Nc1ccn([C@@H]2O[C@H](CO)[C@@H](O)[C@@H]2O)c(=O)n1 has a viability of 77.8%.
For CCN1CCN(c2cc(-c3ccc(F)cc3)c3c(n2)CCCCCC3)CC1, the viability was 52.9%.
CC(C)n1c(/C=C/[C@H](O)C[C@H](O)CC(=O)O)c(-c2ccc(F)cc2)c2ccccc21 (racemic) has a viability of 103%.

Repeated from above (block 3):
Beta-adrenergic receptor kinase 1 (GRK2, Homo sapiens, UniProt P25098); cell-free assay, competition with immobilised ligand — remaining binding: 67%.
For Membrane-associated tyrosine- and threonine-specific cdc2-inhibitory kinase (PKMYT1, Homo sapiens, UniProt Q99640); cell-free assay, competition with immobilised ligand: remaining binding read 90%.
For Serine/threonine-protein kinase B-raf (BRAF, Homo sapiens, UniProt P15056, V600E); cell-free assay, competition with immobilised ligand: remaining binding read 87%.
The remaining binding was 100% (Cyclin-dependent kinase 5 (CDK5, Homo sapiens, UniProt Q00535); cell-free assay, competition with immobilised ligand).
